Assay results pooled from the literature.
Each numbered part is a random draw from the data of one study; scales do not carry over between parts. Positions count from the first letter of the parent shown.

Set 1 — target: CCNB1, cyclin fold, Cln2 fusion (human); method: yeast growth competition, sequencing; matrix: yeast; setting: strong parent motif; reference: not given; direction: higher = stronger binding
Parent: E2F1 docking peptide (human); PPVKRRLDFETDH
Change | normalised enrichment score
R5P | 0.125
R5I | 2.95
L7H | 0.505
R6W | 1.92
T11L | 4.91

Set 2 — method: protein binding microarray; molecule type: double-stranded DNA, one strand shown; matrix: in vitro; tested at: not given; reference: not given; direction: higher = stronger binding
Target: Histone acetyltransferase KAT6A, winged helix 1, GST fusion (KAT6A, Homo sapiens, UniProt Q92794, residues 1-85)
Setting: 8-mer, flanks averaged, mean of 2 arrays, mostly near background
Target sequence (chain): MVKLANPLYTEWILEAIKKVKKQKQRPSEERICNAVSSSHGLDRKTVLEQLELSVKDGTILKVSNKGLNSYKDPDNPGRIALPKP
Oligonucleotide | E-score
AGCAAGGC | 0.0191
GGTAGAAC | 0.0172
AACTGATG | -0.0237
GCATGCAC | 0.107
TAGACATA | -0.117

Set 3 — method: DHFR PCA, deep sequencing; matrix: yeast; added: (+)-ABA 17 µM; reference: wild-type fitted maximum; direction: higher = stronger binding
Target: ABI1, truncated, D143A, DHFR fusion (Arabidopsis thaliana)
Setting: methotrexate growth selection, single substitutions
Parent: PYL1, truncated, DHFR fusion (Arabidopsis thaliana); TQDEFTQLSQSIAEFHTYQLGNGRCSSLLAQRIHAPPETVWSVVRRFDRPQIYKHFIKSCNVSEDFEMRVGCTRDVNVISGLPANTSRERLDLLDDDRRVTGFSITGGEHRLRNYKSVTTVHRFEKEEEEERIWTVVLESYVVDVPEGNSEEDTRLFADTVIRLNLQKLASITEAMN
Change | relative binding score
E89F | 0.63%
E109M | 59.2%
I33M | 63.8%
R155W | -2%
Y53F | 51.3%

Other studies, line by line
Molecule | target | test | test system | conditions | how to read | measurement | value
PhoQ, residues 284 288 289 292 302 303 SCCLKL | PhoP, residues 12 14 15 18 19 NQGLL (Escherichia coli, UniProt P23836) | Sort-seq, measured: YFP reporter | E. coli | PhoQ-PhoP variant library, added: 10 µM Mg2+ | reference: high Mg2+ state, higher = stronger signaling | fold induction | 5.08

For quick reference, copied from above (set 2):
Oligonucleotide | E-score
GGTAGAAC | 0.0172
AGCAAGGC | 0.0191
